{"data": "Measured values collected from several papers", "note": "Lines come from different studies, so protocols differ. ± marks the error that the study gave."}
{"Structure (SMILES)": "Cc1cnc(C(=O)N[C@H]2CCCCC/C=C\\[C@@H]3C[C@@]3(C(=O)NS(=O)(=O)C3CC3)NC(=O)[C@@H]3C[C@@H](Oc4nc5ccccc5c5ccccc45)CN3C2=O)cn1", "test system": "healthy human volunteers, plasma", "setting": "oral, dose not given, with: digoxin plus 2D regimen", "Cmax": "1390 ng/mL"}
{"Structure (SMILES)": "Oc1ccc2cc3ccc4cccc5ccc(c2c1)c3c45", "assay": "UPLC-AMS", "test system": "human, plasma", "setting": "oral, 250 ng of [14C]-BaP", "Cmax": "6.26 ± 3.64 fg BaP equivalents/mL"}
{"Structure (SMILES)": "CN[C@@H]1C[C@H]2O[C@@](C)([C@@H]1OC)n1c3ccccc3c3c4c(c5c6ccccc6n2c5c31)C(=O)N[C@@H]4O", "test system": "human patients", "setting": "intravenous infusion, 24 mg/m^2/24 h, 72 h infusion, cycle 1, mean, with: prednisone", "Cmax": "11800 ng/mL"}
{"Structure (SMILES)": "CC[C@@]1(O)C(=O)OCc2c1cc1n(c2=O)Cc2cc3c(CN(C)C)c(O)ccc3nc2-1", "test system": "human patients, plasma", "setting": "oral, 2.5 mg daily for 5 days, day 5 cycle 2, geometric mean, with: pazopanib 800 mg daily", "Cmax": "11.1 ng/mL"}
{"Structure (SMILES)": "CC(C)[C@H](N)C(=O)NCCCS(=O)(=O)O", "test system": "human, plasma", "setting": "oral, 265 mg tablet twice daily, day 7, fed, multiple dosing", "Cmax": "6460 ± 1800 ng/mL"}
{"Structure (SMILES)": "CC[C@H](C)[C@H](NC(=O)[C@H](CC(C)C)NC(=O)[C@H](Cc1c[nH]c2ccccc12)NC(=O)[C@H](CCC(N)=O)NC(=O)[C@@H](NC(=O)[C@H](Cc1ccccc1)NC(=O)[C@H](C)NC(=O)[C@H](CCCCNC(=O)COCCOCCNC(=O)COCCOCCNC(=O)CC[C@H](NC(=O)CCCCCCCCCCCCCCCCCCC(=O)O)C(=O)O)NC(=O)[C@H](CCC(N)=O)NC(=O)[C@H](C)NC(=O)[C@@H](NC(=O)[C@H](CCCCN)NC(=O)[C@H](CC(=O)O)NC(=O)[C@H](CC(C)C)NC(=O)C(C)(C)NC(=O)[C@@H](NC(=O)[C@H](CO)NC(=O)[C@H](Cc1ccc(O)cc1)NC(=O)[C@H](CC(=O)O)NC(=O)[C@H](CO)NC(=O)[C@@H](NC(=O)[C@H](Cc1ccccc1)NC(=O)[C@@H](NC(=O)CNC(=O)[C@H](CCC(=O)O)NC(=O)C(C)(C)NC(=O)[C@@H](N)Cc1ccc(O)cc1)[C@@H](C)O)[C@@H](C)O)[C@@H](C)CC)[C@@H](C)CC)C(C)C)C(=O)N[C@@H](C)C(=O)NCC(=O)NCC(=O)N1CCC[C@H]1C(=O)N[C@@H](CO)C(=O)N[C@@H](CO)C(=O)NCC(=O)N[C@@H](C)C(=O)N1CCC[C@H]1C(=O)N1CCC[C@H]1C(=O)N1CCC[C@H]1C(=O)N[C@@H](CO)C(N)=O", "test system": "human, normal hepatic function, plasma", "setting": "subcutaneous, 5 mg single dose, geometric mean", "Cmax": "510 ng/mL"}
{"Structure (SMILES)": "CC(=O)C[C@@H](c1ccccc1)c1c(O)c2ccccc2oc1=O", "test system": "healthy human volunteers, plasma", "setting": "dose not given, given alone", "Cmax": "272 ng/mL"}
{"Structure (SMILES)": "CN1CC(=O)N2[C@H](c3ccc4c(c3)OCO4)c3[nH]c4ccccc4c3C[C@@H]2C1=O", "test system": "healthy adult humans, both sexes, plasma", "setting": "oral, 10/40 mg fixed-dose combination, single dose, fasted", "Cmax": "545 ng/mL"}
{"Structure (SMILES)": "Cc1ncc2n1-c1ccc(Cl)cc1C(c1ccccc1F)=NC2", "test system": "healthy human volunteers, plasma", "setting": "oral, 5 mg single dose, geometric mean, with: water", "Cmax": "88 nM"}
{"Structure (SMILES)": "Cc1ncc(OC[C@@]2(c3cccc(F)c3)C[C@H]2C(=O)Nc2ccc(F)cn2)c(C)n1", "test system": "human, plasma", "setting": "10 mg, alone, geometric mean", "Cmax": "54.4 ng/mL"}
{"note": "Repeated from above:"}
{"Structure (SMILES)": "CN1CC(=O)N2[C@H](c3ccc4c(c3)OCO4)c3[nH]c4ccccc4c3C[C@@H]2C1=O", "test system": "healthy adult humans, both sexes, plasma", "setting": "oral, 10/40 mg fixed-dose combination, single dose, fasted", "Cmax": "545 ng/mL"}
